Results of several laboratories.
Compare with care: the assays were run in different laboratories. Several values in a cell are separate wells, animals, samples, runs or records. ± gives the spread as reported.
Nuclear receptor subfamily 2 group C member 2 ligand-binding domain: Nuclear receptor subfamily 2 group C member 2, ligand-binding domain (Homo sapiens, UniProt P49116)
Chain of UniProt P27361 (whole entry, looked up): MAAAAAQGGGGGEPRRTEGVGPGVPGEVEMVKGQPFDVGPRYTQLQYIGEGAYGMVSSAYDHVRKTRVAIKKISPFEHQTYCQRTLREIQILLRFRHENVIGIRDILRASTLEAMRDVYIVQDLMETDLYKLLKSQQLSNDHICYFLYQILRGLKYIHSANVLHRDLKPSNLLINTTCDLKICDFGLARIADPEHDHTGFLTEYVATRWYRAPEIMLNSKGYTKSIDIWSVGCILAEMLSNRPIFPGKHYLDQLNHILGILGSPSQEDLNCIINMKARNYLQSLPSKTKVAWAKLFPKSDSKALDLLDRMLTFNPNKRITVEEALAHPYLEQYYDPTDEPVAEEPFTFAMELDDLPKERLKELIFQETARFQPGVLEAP
Chain of UniProt P49116 (whole entry, looked up): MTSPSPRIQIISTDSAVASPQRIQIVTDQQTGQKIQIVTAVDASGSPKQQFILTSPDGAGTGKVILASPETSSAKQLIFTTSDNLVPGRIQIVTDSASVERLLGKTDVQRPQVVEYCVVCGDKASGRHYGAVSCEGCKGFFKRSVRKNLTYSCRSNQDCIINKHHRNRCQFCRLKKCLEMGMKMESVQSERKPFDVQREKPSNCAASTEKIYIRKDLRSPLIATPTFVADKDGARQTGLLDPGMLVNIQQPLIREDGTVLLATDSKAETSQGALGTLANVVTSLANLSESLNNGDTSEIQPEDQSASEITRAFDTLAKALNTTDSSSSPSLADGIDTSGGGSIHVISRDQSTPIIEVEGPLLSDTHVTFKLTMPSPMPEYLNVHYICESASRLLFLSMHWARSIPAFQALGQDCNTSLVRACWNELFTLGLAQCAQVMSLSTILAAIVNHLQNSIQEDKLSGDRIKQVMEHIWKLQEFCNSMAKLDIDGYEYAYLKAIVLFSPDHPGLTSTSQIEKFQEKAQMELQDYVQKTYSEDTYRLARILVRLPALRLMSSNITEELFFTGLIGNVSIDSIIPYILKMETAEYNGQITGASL
Chain of UniProt P31941 (whole entry, looked up): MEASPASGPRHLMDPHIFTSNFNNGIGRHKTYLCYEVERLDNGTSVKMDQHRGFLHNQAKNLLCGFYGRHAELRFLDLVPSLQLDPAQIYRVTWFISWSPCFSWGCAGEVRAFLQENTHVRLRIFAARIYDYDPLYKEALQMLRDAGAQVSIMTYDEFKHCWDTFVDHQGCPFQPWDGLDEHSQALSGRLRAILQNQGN
Chain of UniProt P40763 (whole entry, looked up): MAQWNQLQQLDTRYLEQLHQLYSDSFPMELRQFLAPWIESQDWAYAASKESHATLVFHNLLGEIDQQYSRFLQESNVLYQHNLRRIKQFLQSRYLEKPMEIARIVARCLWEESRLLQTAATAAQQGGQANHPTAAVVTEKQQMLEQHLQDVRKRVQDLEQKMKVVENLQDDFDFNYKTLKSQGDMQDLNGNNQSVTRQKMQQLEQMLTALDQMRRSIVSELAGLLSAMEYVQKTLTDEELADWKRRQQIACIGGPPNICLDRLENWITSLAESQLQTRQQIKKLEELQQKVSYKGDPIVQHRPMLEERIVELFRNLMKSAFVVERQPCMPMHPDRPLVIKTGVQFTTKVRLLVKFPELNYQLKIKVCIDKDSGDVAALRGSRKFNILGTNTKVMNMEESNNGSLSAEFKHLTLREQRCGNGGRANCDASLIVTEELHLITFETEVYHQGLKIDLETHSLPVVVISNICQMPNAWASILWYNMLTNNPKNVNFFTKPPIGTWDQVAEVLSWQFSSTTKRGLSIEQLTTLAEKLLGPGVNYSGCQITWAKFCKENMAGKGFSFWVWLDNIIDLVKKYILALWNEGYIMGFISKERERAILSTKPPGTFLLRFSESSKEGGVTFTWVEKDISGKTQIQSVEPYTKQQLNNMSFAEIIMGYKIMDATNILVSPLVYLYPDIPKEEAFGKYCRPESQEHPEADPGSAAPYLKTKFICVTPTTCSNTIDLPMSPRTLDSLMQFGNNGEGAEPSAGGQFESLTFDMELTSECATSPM
Chain of UniProt P06730 (whole entry, looked up): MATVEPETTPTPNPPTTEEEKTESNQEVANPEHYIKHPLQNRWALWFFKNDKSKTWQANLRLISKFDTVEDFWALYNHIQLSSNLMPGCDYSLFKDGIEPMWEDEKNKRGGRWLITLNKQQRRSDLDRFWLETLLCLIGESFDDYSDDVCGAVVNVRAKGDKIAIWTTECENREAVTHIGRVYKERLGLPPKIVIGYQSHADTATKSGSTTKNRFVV
Chain of UniProt Q5AP53 (whole entry, looked up): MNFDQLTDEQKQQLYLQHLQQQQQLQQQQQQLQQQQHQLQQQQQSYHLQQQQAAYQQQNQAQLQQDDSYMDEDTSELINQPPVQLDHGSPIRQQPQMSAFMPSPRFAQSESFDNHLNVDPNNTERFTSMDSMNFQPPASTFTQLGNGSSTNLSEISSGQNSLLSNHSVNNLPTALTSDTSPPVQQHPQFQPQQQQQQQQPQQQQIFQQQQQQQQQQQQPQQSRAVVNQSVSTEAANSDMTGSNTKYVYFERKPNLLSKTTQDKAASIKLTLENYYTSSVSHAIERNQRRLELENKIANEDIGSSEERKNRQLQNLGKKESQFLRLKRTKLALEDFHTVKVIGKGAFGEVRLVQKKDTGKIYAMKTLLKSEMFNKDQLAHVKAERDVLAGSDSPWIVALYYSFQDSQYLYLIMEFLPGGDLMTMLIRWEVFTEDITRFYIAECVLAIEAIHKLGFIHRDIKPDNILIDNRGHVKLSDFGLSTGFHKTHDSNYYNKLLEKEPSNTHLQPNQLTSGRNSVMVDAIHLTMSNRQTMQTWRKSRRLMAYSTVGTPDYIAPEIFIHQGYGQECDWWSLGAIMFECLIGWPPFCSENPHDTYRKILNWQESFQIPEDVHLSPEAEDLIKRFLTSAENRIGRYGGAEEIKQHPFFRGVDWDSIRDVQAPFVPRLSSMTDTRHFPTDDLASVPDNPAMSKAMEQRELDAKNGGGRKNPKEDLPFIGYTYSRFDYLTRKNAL
Chain of UniProt Q13555 (whole entry, looked up): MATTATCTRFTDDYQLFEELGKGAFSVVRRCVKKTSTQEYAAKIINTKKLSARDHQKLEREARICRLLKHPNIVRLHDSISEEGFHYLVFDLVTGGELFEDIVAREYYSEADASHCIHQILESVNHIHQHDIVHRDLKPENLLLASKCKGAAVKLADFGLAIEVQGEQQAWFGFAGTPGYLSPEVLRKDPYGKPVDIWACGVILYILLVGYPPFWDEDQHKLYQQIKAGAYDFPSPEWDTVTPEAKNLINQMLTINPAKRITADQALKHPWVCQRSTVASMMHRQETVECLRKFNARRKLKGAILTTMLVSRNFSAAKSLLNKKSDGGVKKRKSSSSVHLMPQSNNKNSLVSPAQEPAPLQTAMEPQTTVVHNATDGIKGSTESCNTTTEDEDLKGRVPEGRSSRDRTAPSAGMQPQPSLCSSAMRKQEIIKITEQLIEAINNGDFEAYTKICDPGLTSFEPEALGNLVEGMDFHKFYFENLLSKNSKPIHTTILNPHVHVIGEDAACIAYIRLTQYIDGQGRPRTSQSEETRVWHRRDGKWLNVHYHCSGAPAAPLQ
Chain of UniProt Q8NEZ5 (whole entry, looked up): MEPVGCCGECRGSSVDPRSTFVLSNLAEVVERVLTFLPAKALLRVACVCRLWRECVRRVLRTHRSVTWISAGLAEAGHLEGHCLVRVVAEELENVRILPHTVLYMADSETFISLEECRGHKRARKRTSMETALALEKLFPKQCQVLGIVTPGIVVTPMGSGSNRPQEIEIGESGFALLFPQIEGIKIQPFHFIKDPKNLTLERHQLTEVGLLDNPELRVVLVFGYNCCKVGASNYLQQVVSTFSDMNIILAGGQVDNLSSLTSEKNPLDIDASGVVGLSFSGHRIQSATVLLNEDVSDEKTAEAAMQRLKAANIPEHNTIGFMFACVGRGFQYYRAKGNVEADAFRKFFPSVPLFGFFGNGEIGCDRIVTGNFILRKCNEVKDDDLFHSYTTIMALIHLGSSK
Chain of UniProt O60331 (whole entry, looked up): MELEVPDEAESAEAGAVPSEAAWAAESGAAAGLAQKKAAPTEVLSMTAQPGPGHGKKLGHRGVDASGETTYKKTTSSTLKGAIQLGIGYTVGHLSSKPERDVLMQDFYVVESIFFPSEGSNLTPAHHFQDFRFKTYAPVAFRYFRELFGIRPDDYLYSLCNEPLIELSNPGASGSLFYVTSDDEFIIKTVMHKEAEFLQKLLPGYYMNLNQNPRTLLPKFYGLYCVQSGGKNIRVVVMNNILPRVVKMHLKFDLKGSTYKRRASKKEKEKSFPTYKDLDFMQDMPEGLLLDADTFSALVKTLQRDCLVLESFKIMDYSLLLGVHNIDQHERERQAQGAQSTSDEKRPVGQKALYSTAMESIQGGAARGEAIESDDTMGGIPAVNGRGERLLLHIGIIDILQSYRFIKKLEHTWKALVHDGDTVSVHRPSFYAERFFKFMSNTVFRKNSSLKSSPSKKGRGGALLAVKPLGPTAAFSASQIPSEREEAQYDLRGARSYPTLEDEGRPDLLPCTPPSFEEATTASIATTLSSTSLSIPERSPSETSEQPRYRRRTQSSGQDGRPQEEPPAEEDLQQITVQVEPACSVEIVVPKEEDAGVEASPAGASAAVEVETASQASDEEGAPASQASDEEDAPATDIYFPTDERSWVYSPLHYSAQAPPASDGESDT
Chain of UniProt Q9BXA7 (whole entry, looked up): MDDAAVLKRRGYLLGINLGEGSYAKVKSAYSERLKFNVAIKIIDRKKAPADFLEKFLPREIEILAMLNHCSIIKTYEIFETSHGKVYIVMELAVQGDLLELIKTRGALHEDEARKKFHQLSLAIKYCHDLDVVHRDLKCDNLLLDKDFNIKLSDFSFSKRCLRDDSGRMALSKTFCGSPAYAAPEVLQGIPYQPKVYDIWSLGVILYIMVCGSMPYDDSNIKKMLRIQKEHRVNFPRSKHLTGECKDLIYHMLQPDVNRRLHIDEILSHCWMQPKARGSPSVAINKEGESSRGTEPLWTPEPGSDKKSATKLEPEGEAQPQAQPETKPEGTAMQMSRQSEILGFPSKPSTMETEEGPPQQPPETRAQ

Structure (SMILES) | target | assay | test system | setting | scale | endpoint | value
COc1cc(F)ccc1-c1ncnc(Nc2cccc(C[S@](C)(=N)=O)c2)n1 | TSSK1B (Homo sapiens, UniProt Q9BXA7) | kinase activity |  | 10 µM, together with: 10 µM ATP |  | remaining activity | 96%
CC(=O)c1ccc2cc(S(=O)(=O)Nc3ccccc3)ccc2c1 | STAT3 (Homo sapiens, UniProt P40763) | tyrosine phosphorylation, inhibitor, ELISA, refers to: phospho-Tyr705 |  |  |  | log IC50 | 0.768
Cl.Nc1ncnc2nc[nH]c12 | Nuclear receptor subfamily 2 group C member 2 ligand-binding domain | SPR imaging |  | 600 nM |  | koff | 1.23e-07 s⁻¹
C=CC(=O)N1CCC(COCC(=O)N2CCN(c3nc(-c4cnc(N)nc4C(F)F)nc(N4CCOC[C@@H]4C)n3)CC2)CC1 | CAMK2G (Homo sapiens, UniProt Q13555) | KINOMEscan |  | 1 µM |  | remaining binding | 100%
O=C(O)[C@@H]1CCCN1c1ncnc2[nH]cnc12 (racemic) | F-box only protein 22, with SKP1 (Homo sapiens, UniProt Q8NEZ5) | binding, affinity selection mass spectrometry |  |  | reference: other proteins in batch | log fold enrichment | -0.0605
CC(C)C(=O)Nc1n[nH]c2cc(-c3cccc(NS(=O)(=O)C4CC4)c3)ccc12 | PIP5K1C (Homo sapiens, UniProt O60331) | ADP-Glo |  | 1.52 nM, together with: 10 µM ATP |  | ADP produced | 2.88 µM
Nc1nccs1 | Nuclear receptor subfamily 2 group C member 2 ligand-binding domain | SPR imaging |  | 600 nM |  | koff | 2.12e-05 s⁻¹
CCCC[C@H]1CN(c2cccc(OC(F)(F)F)c2)C(=O)CN1Cc1cncn1Cc1ccc(C(F)(F)F)cc1 | Cryptococcus neoformans farnesyltransferase | enzyme activity, inhibitor, fluorescence |  | together with: 1 µM FPP, 0.5 µM dansylated peptide |  | IC50 | 280 ± 150 nM
O=C(O)c1ccc(=O)c2nc3c4c(ccc3[nH]c1-2)[C@@H]1Cc2nc3cccc(O)c3nc2[C@H](O4)[C@H]1O | Eukaryotic translation initiation factor 4E, with 4E-BP1 (EIF4E, Homo sapiens, UniProt P06730) | click chemistry enzyme-linked |  |  |  | Hill slope | ~-1
CN(C(=O)n1cnc(-c2ccc[n+]([O-])c2)c1)C1CCCCC1 | Faah (Mus musculus, UniProt O08914) | enzyme activity, inhibitor | NMRI mouse, liver | oral, 1 h |  | ED50 | 0.011 mg/kg
Nc1[nH]nc2nnc(-c3c(-c4ccccc4)nn4ccccc34)cc12 | MAPK3 (Homo sapiens, UniProt P27361) | ADP-Glo |  | 100 nM, together with: MBP substrate |  | kinase activity | 69.7% and 87.1% and 113%
O=c1nc(SCc2cc(F)cc(C(F)(F)F)c2)nc(SCc2ccc3nc(Cl)ccc3c2)[nH]1 | TOP2A (Homo sapiens, UniProt P11388) | DNA cleavage |  | 125 µM, together with: etoposide 50 µM |  | linear DNA | 10.1%
C[C@H](N)C(=O)N[C@@H](CCCNC(=N)N(C)C)C(=O)N[C@H](C(=O)N[C@@H](CCCCN)C(=O)N[C@@H](CCC(N)=O)C(=O)N[C@H](C(=O)N[C@@H](C)C(=O)N[C@@H](CCCNC(=N)N)C(=O)N[C@@H](CCCCN)C(=O)N[C@@H](CO)C(=O)O)[C@@H](C)O)[C@@H](C)O | Transcriptional regulator ATRX (ATRX, Homo sapiens, UniProt P46100, F284Y/K251R) | isothermal titration calorimetry |  | concentration not given, pH 7.5, 25.0 °C |  | binding enthalpy | -4.8 kcal/mol
N#Cc1ccn2c(-c3ccncc3)c(-c3ccc(F)cc3)nc2c1 | Serine/threonine-protein kinase CBK1 (CBK1, Candida albicans, UniProt Q5AP53) | kinase binding, competitor, MIB/MS competition, refers to: CBK1 | Candida albicans cell lysate | 10 µM | reference: DMSO | log2 fold change | -0.301
CCC1(O)CCCN(C(=O)c2ccc(-c3ccc(F)c(NC(=O)CCl)c3)cc2)C1 (stereo not shown) | DNA dC->dU-editing enzyme APOBEC-3A (Homo sapiens, UniProt P31941) | covalent adduct, intact protein MS |  | 1 h, 5-fold excess, 125 µM |  | unmodified protein | 5% and 0%
O=C1OC(c2ccccc2)=N/C1=C\c1cccc(O)c1 | Pancreatic alpha-amylase (Homo sapiens, UniProt P04746) | inhibitor, Lineweaver-Burk |  | 100 ppm, together with: starch substrate |  | Vmax | 0.045 mg/mL/min
